Results gathered from unrelated publications.
Lines come from different studies, so protocols differ.
MTNR1B: Melatonin receptor type 1B (MTNR1B, Homo sapiens, UniProt P49286)
Chain of UniProt P49286 (whole entry, looked up): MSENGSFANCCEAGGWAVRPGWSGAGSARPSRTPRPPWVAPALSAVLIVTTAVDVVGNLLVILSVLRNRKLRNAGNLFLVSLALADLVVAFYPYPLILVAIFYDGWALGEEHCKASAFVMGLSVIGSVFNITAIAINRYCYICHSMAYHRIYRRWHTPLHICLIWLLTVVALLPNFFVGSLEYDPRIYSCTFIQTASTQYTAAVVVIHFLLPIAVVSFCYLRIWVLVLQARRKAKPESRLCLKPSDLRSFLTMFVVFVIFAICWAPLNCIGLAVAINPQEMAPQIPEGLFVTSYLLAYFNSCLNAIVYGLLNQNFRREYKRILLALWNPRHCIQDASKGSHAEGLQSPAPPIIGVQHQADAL
Chain of UniProt Q10QA5 (whole entry, unmodified, looked up): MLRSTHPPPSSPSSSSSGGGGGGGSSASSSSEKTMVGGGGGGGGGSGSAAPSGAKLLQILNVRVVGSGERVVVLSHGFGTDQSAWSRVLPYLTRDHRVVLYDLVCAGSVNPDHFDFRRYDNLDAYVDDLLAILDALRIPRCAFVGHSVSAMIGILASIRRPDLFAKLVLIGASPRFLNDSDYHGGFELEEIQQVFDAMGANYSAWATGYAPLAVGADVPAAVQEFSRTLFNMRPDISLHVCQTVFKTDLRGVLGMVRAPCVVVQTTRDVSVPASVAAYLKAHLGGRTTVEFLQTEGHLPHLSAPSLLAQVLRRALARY
Chain of UniProt Q9BUB5 (whole entry, looked up): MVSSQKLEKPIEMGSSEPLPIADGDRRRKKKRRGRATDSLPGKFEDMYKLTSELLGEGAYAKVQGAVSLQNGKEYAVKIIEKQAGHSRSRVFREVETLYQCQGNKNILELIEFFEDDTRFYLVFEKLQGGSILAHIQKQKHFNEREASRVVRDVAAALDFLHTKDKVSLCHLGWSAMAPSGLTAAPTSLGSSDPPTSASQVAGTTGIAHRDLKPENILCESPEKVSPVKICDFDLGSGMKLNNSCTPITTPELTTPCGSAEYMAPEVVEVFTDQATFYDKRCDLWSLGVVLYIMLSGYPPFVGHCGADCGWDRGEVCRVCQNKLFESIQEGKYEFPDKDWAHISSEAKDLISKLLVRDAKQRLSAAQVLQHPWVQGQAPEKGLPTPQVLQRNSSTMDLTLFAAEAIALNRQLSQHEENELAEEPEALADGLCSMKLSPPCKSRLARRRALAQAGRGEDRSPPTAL
Chain of UniProt P42336 (whole entry, unmodified, looked up): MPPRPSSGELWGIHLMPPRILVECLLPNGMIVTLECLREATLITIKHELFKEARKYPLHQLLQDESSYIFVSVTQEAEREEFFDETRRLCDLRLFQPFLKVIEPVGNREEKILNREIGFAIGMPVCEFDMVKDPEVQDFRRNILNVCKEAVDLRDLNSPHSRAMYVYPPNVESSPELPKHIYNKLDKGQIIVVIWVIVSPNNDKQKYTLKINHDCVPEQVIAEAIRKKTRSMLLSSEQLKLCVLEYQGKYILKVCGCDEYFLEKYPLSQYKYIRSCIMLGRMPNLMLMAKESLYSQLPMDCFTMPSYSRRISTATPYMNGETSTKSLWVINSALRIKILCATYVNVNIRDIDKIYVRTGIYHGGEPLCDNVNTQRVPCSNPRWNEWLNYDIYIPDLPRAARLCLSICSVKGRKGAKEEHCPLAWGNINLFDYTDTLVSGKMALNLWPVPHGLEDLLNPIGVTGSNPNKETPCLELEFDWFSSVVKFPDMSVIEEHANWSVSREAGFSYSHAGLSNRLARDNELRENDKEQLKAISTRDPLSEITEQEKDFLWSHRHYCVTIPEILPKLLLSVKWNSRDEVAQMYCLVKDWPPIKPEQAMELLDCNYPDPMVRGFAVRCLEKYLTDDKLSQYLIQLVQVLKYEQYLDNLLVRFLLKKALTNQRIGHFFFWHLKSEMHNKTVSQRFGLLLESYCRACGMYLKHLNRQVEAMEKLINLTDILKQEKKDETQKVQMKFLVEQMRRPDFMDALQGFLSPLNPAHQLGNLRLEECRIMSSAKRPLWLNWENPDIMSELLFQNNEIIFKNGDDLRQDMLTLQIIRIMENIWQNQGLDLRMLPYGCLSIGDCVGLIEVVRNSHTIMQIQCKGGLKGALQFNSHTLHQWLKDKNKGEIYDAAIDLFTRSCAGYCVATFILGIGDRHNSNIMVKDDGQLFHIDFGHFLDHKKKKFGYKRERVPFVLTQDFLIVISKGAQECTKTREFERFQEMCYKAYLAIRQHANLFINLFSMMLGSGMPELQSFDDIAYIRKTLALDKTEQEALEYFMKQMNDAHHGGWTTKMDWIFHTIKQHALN
Chain of UniProt P07949 (whole entry, looked up): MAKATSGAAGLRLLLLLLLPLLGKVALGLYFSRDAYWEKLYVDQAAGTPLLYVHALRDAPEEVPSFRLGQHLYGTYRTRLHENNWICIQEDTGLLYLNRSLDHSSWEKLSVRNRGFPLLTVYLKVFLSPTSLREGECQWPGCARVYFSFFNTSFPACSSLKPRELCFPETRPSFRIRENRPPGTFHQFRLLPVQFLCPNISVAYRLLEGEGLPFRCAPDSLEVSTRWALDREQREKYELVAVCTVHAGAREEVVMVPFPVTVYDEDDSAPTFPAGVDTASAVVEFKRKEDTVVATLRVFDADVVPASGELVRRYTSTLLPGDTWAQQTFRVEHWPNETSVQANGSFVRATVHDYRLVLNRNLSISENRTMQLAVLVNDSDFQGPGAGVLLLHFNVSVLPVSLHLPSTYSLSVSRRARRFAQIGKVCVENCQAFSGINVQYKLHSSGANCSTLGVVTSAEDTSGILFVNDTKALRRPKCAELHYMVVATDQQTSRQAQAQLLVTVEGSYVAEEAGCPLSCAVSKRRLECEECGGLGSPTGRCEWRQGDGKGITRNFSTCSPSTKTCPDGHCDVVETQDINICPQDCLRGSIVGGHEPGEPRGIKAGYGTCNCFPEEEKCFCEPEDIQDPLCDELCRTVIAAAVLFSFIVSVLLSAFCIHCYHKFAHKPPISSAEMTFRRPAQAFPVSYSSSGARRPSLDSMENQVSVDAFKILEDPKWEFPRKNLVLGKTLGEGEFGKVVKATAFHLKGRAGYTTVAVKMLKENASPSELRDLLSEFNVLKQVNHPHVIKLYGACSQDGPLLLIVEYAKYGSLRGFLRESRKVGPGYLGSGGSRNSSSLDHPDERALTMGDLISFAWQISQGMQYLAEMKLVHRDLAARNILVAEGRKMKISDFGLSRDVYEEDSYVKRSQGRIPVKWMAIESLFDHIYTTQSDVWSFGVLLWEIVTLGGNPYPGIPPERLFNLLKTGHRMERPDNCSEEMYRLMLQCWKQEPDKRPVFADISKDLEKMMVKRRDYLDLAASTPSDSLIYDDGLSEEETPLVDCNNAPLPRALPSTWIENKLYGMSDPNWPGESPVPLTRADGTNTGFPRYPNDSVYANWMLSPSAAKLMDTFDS
Chain of UniProt P27361 (whole entry, looked up): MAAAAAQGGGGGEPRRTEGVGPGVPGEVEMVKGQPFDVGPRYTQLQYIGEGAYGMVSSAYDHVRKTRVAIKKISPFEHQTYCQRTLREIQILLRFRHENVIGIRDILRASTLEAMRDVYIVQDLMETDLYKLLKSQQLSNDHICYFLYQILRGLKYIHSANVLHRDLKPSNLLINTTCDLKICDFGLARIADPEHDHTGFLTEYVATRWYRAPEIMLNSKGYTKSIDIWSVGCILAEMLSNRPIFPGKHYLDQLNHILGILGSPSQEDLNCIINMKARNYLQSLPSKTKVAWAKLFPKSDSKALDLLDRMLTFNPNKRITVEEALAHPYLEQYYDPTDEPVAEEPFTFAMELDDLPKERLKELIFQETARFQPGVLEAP
Chain of UniProt Q9P0L2 (whole entry, looked up): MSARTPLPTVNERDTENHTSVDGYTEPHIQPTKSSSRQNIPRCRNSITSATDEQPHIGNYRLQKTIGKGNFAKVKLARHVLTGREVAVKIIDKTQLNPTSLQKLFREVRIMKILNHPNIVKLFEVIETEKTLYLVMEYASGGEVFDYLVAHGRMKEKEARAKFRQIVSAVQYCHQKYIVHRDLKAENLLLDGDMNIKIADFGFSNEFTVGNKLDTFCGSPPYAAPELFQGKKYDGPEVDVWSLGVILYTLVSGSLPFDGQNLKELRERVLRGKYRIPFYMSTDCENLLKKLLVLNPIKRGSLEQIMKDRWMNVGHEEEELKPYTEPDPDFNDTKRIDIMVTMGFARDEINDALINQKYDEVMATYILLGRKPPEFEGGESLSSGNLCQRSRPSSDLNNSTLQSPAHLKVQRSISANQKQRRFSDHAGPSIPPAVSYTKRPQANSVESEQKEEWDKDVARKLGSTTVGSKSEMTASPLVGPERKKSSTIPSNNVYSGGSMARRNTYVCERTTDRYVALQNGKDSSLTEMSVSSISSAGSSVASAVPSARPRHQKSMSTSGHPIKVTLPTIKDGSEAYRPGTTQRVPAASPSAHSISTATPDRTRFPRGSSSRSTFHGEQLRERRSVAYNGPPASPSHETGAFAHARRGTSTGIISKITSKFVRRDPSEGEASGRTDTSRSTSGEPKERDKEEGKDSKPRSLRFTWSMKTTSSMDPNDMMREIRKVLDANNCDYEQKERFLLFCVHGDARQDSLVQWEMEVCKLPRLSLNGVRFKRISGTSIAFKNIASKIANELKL
Chain of UniProt P62344 (whole entry, looked up): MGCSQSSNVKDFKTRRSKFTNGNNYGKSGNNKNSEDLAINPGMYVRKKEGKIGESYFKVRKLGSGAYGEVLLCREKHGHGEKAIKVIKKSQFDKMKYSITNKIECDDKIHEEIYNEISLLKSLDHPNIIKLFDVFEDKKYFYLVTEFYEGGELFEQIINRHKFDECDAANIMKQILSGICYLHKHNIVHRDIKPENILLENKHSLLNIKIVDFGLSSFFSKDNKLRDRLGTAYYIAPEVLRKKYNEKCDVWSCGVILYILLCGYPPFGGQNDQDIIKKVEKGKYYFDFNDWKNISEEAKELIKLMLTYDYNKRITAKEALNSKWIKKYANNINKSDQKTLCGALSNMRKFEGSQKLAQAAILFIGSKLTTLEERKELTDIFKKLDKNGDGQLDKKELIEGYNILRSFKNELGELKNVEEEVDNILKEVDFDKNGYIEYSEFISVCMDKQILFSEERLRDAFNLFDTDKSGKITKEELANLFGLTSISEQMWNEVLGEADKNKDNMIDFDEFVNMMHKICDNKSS

Compound	tested on	assay	system	conditions	endpoint	value
CNc1ncc2c(/C=C/C(=O)N3CCC(OC)CC3)nn(Cc3cccc(C(F)(F)F)c3)c2n1	TAOK3 (Homo sapiens, UniProt Q9H2K8)	enzyme activity, inhibitor, radiometric	–	1 µM	remaining activity	98%
Cc1cc([C@@H](C)Nc2ccccc2C(=O)O)c2nc(N3CCC(F)(F)CC3)c(C#N)c(=O)n2c1	MKNK1 (Homo sapiens, UniProt Q9BUB5)	binding, competition with immobilised ligand	–	10 µM	remaining binding	74%
CC(=O)NCCc1c(Cc2ccccc2)[nH]c2ccccc12	MTNR1B	GTPγS binding, agonist, radiometric	–	cell membranes	Emax	20%
CCCCC(=O)Nc1ccc(-c2ccc3ncn(CCC)c(=O)c3c2)cn1	MAP3K10 (Homo sapiens, UniProt Q02779)	binding, competition with immobilised ligand	–	0.5 µM	remaining binding	100%
Cc1cnn2ncc(-c3ccnc(N(C)C)n3)c2c1	CDPK1 (Plasmodium falciparum, UniProt P62344)	binding	–	1 µM	remaining binding	78%
Cc1ccc(N(O)N=Nc2ccc(S(=O)(=O)Nc3onc(C)c3C)cc2)cc1	–	DPPH scavenging, absorbance	–	60 µg/mL	inhibition	7.69%
C=CC(=O)N1CCC(COCC(=O)N2CCN(c3nc(-c4cnc(N)nc4C(F)F)nc(N4CCOC[C@@H]4C)n3)CC2)CC1	MARK1 (Homo sapiens, UniProt Q9P0L2)	binding, competition with immobilised ligand	–	1 µM	remaining binding	100%
C1=C/COCc2cc(ccc2OCCN2CCCC2)Nc2nccc(n2)-c2cccc(c2)COC/1	CILK1 (Homo sapiens, UniProt Q9UPZ9)	binding	–	0.1 µM	remaining binding	29%
Cc1cccc(N(O)N=Nc2ccc(S(=O)(=O)Nc3onc(C)c3C)cc2)c1	–	DPPH scavenging, absorbance	–	60 µg/mL	inhibition	24.9%
CC[C@H](C)[C@H](NC(=O)[C@H](CCC(N)=O)NC(=O)[C@@H](NC(=O)[C@H](CCSC)NC(=O)[C@H](CCCCN)NC(=O)[C@H](CO)NC(=O)[C@@H](NC(=O)[C@H](CCSC)NC(=O)[C@H](CC(C)C)NC(=O)[C@H](CC(N)=O)NC(=O)[C@@H](NC(=O)[C@@H](NC(=O)[C@H](CO)NC(=O)[C@H](CC(C)C)NC(=O)[C@H](C)NC(=O)[C@H](CCCNC(=N)N)NC(=O)[C@H](CCC(=O)O)NC(=O)[C@H](Cc1ccc(O)cc1)NC(=O)[C@H](Cc1ccccc1)NC(=O)[C@H](C)NC(=O)[C@H](CC(N)=O)NC(=O)[C@@H](N)CCCCN)[C@@H](C)CC)[C@@H](C)CC)[C@@H](C)O)C(C)C)C(=O)N[C@@H](CC(N)=O)C(=O)N[C@H](C(=O)O)C(C)C	MAPK3 (Homo sapiens, UniProt P27361)	enzyme activity, inhibitor, radiometric	–	1 µM	inhibition	-1%
CCC(=O)NC1Cc2ccccc2C(c2ccccc2)C1 (stereo not shown)	MTNR1B	cAMP, agonist, TR-FRET	CHO-K1	20 min	Emax	48%
COc1cc(-c2cncc3c2CN(C)Cc2cc(N4CCNCC4)ccc2-3)cc(OC)c1OC	MAP3K20 (Homo sapiens, UniProt Q9NYL2)	enzyme activity, inhibitor	–	1 µM	remaining activity	72%
COc1ccc2cccc(CCNC(C)=O)c2c1	MTNR1B	β-arrestin recruitment, agonist	MT2	90 min	Emax	96%
COc1cc(CNC(=O)c2cccc(CCl)c2)cc(Br)c1OC	Replicase polyprotein 1ab, papain-like protease (rep, Porcine epidemic diarrhea virus, UniProt P0C6Y4)	enzyme activity, inhibitor, FRET	–	10 µM	inhibition	31%
COc1ccc2[nH]cc(CCNC(C)=O)c2c1I	MTNR1B	cAMP, agonist, TR-FRET	CHO-K1	20 min	Emax	90%
NC/C(=C\F)COc1cccc(Cn2c(=S)[nH]c(=O)c3[nH]cnc32)c1	Estrogen receptor (ESR1, Homo sapiens, UniProt P03372)	ligand displacement, radioligand	–	10 µM	inhibition	< 50%
Cc1cccc(-n2ncc3c(O)c(C(=O)Nc4ccc(C)cc4F)c(=O)[nH]c32)c1	RET (Homo sapiens, UniProt P07949)	enzyme activity, inhibitor, radiometric	–	0.1 µM	remaining activity	134%
CC(=O)/C=C/C=C(C)/C=C/C1=C(C)CC(O)CC1(C)C (stereo in doubt)	D14 (Oryza sativa, UniProt Q10QA5)	thermal stability, DSF	–	100 µM	ΔTm	6.86 °C
Nc1ncnc2occ(-c3ccc(NC(=O)Nc4cc(C(F)(F)F)ccc4F)cc3)c12	PIK3CA (Homo sapiens, UniProt P42336, H1047Y)	cell-free assay, inhibitor	–	20 µM	remaining signal	63%

For quick reference, copied from above:
Compound	tested on	assay	system	conditions	endpoint	value
CC[C@H](C)[C@H](NC(=O)[C@H](CCC(N)=O)NC(=O)[C@@H](NC(=O)[C@H](CCSC)NC(=O)[C@H](CCCCN)NC(=O)[C@H](CO)NC(=O)[C@@H](NC(=O)[C@H](CCSC)NC(=O)[C@H](CC(C)C)NC(=O)[C@H](CC(N)=O)NC(=O)[C@@H](NC(=O)[C@@H](NC(=O)[C@H](CO)NC(=O)[C@H](CC(C)C)NC(=O)[C@H](C)NC(=O)[C@H](CCCNC(=N)N)NC(=O)[C@H](CCC(=O)O)NC(=O)[C@H](Cc1ccc(O)cc1)NC(=O)[C@H](Cc1ccccc1)NC(=O)[C@H](C)NC(=O)[C@H](CC(N)=O)NC(=O)[C@@H](N)CCCCN)[C@@H](C)CC)[C@@H](C)CC)[C@@H](C)O)C(C)C)C(=O)N[C@@H](CC(N)=O)C(=O)N[C@H](C(=O)O)C(C)C	MAPK3 (Homo sapiens, UniProt P27361)	enzyme activity, inhibitor, radiometric	–	1 µM	inhibition	-1%
Cc1ccc(N(O)N=Nc2ccc(S(=O)(=O)Nc3onc(C)c3C)cc2)cc1	–	DPPH scavenging, absorbance	–	60 µg/mL	inhibition	7.69%
